Results of several laboratories.
“And” joins repeats or separate records; there may be more than shown. Numbers after ± are the reported error.

| SMILES | test | test system | conditions | scale | quantity | value |
| --- | --- | --- | --- | --- | --- | --- |
| O=S(=O)(Nc1ccccc1)c1ccc(NC(=S)Nc2ccccc2)cc1 | – | female mouse, blood | oral, 80 mg/kg daily, 14 days | – | mean corpuscular haemoglobin | 15.4 pg |
| CC[C@H](C)[C@H](NC(=O)[C@H](CCCCN)NC(=O)[C@H](CCC(=O)O)NC(=O)[C@H](CCCCN)NC(=O)[C@H](CO)NC(=O)[C@H](CCCCN)NC(=O)[C@H](CCCNC(=N)N)NC(=O)[C@H](Cc1ccccc1)NC(=O)[C@H](Cc1ccccc1)NC(=O)[C@H](CC(=O)O)NC(=O)CNC(=O)[C@H](CC(C)C)NC(=O)[C@@H](N)CC(C)C)C(=O)NCC(=O)N[C@@H](CCCCN)C(=O)N[C@@H](CCC(=O)O)C(=O)N[C@@H](Cc1ccccc1)C(=O)N[C@@H](CCCCN)C(=O)N[C@@H](CCCNC(=N)N)C(=O)N[C@H](C(=O)N[C@H](C(=O)N[C@@H](CCC(N)=O)C(=O)N[C@@H](CCCNC(=N)N)C(=O)N[C@H](C(=O)N[C@@H](CCCCN)C(=O)N[C@@H](CC(=O)O)C(=O)N[C@@H](Cc1ccccc1)C(=O)N[C@@H](CC(C)C)C(=O)N[C@@H](CCCNC(=N)N)C(=O)N[C@@H](CC(N)=O)C(=O)N[C@@H](CC(C)C)C(=O)N[C@H](C(=O)N1CCC[C@H]1C(=O)N[C@@H](CCCNC(=N)N)C(=O)N[C@H](C(=O)N[C@@H](CCC(=O)O)C(=O)N[C@@H](CO)C(=O)O)[C@@H](C)O)C(C)C)[C@@H](C)CC)C(C)C)[C@@H](C)CC | LC-MS | buffer with human neutrophil elastase | 40 µM, 20 min, pH 7.5, 37 °C | reference: 0 h | remaining intact peptide | 32.2% and 24.6% and 25.2% |
| COc1ncccc1-c1cnn2ccc(N3CCN(C(=O)OC(C)C)CC3)nc12 | – | mouse, formalin test, brain | oral, 10 mg/kg, 60 min | – | drug concentration | 16 µM |
| CC(C)[C@@H]1CC[C@@H](C)C[C@@H]1O | acute oral toxicity OECD | Swiss albino mice, serum | oral, 1000 mg/kg | – | cholesterol | 72.7 ± 1.37 mg/dL |
| Cc1ccccc1C(=O)NN=Cc1ccc(O)c(Br)c1 | – | C3H/HeN mouse IN model, plasma | intravenous, 1.6 mg/kg, 30 min | – | plasma concentration | 172 ng/mL |
| O=C1Nc2cc3[nH]nc(-c4ccncc4)c3cc2CN1Cc1ccccc1 | CTCAE v4.03 | advanced solid tumour patients | intravenous, 3.6 mg/kg, schedules 1/2 | – | patients with increased GGT | 0% |
| [O-][S+]1CCc2nc(N3CCC(c4ncc(Cl)cn4)CC3)nc(NC3(CO)CCC3)c21 (centres unmarked) | refers to: oral hypoaesthesia | healthy male humans | 6 mg twice daily | – | adverse event incidence | 0% |
| O=C(c1ccc(F)c(F)c1Nc1ccc(I)cc1F)N1CC(O)([C@@H]2CCCCN2)C1 | – | patients aged 2 to 6 years | oral, dose not given | – | SAE leading treatment withdrawal | 0% |
| COc1cc2c(Oc3ccc4[nH]c(C)cc4c3F)ccnc2cc1OCC1(N)CC1 | – | paediatric recurrent refractory sarcoma | 8 mg/kg | – | grade 1 or 2 Dizzy | 13.3% |
| O=C(Nc1ccc2c(c1)B(O)OC2)c1ccccc1OCc1ccccc1 | PAMPA | – | 200 µM, 5 h, pH 7.4 | – | membrane retention | 17.7% |
| CN[C@@H](C)C(=O)N[C@H]1CN(S(=O)(=O)c2cccc(S(=O)(=O)N3CC[C@H]4CC[C@@H](C(=O)NC(c5ccccc5)c5ccccc5)N4C(=O)[C@@H](NC(=O)[C@H](C)NC)C3)c2)CC[C@H]2CC[C@@H](C(=O)NC(c3ccccc3)c3ccccc3)N2C1=O | – | patients advanced solid tumours | dose not given, all grades all doses | – | treatment-related ALT elevation | 7.1% |
| Clc1ccc(-c2cc(Cl)c(Cl)cc2Cl)cc1Cl | – | whole cow milk | 50 nM nominal | – | dose fraction in skim milk | 4.03% |
| CC(C)[C@@H]1NC(=O)CNC(=O)[C@H](CC(N)=O)NC(=O)[C@H](CCCNC(=N)N)NC(=O)[C@H](Cc2ccc(O)cc2)NC(=O)[C@H](C(C)C)NC(=O)[C@@H](NC(=O)[C@@H](NC(=O)[C@H](CC(N)=O)NC(=O)[C@H](Cc2c[nH]c3ccccc23)NC(=O)[C@H](C)NC(=O)[C@H](Cc2ccccc2)NC(=O)CN)C(C)C)CSSC[C@@H](C(=O)N[C@@H](Cc2cnc[nH]2)C(=O)N[C@@H](CCCNC(=N)N)C(=O)N[C@@H](CCCNC(=N)N)C(=O)N[C@@H](C)C(=O)N[C@@H](CC(N)=O)C(N)=O)NC(=O)[C@H](C(C)C)NC(=O)[C@H](CCCNC(=N)N)NC1=O | HPLC | mouse mammary gland homogenate | 2560 µM, 20.00 h, 37 °C, 50 mg/mL tissue | – | remaining peptide | 27.9% and 26.2% and 22.5% |
| CO[C@H]1C[C@@H]2CC[C@@H](C)[C@@](O)(O2)C(=O)C(=O)N2CCCC[C@H]2C(=O)O[C@H]([C@H](C)C[C@@H]2CC[C@@H](OC(=O)NCCOCCOCCOCCOCCOCCOCCOCCOCCC(=O)N3CCc4cc(Cn5nc(-c6ccc7oc(N)nc7c6)c6c(N)ncnc65)ccc4C3)[C@H](OC)C2)C[C@@H](O)[C@H](C)/C=C(\C)[C@@H](O)[C@@H](OC)C(=O)[C@H](C)C[C@H](C)/C=C/C=C/C=C/1C | phase 1 dose escalation, refers to: gastric haemorrhage | advanced solid tumour patients | intravenous, 12 mg weekly, any grade | – | dose-reducing adverse events | 0% |
